Measurements pooled from the literature.
Each numbered part is a random draw from the data of one study; scales do not carry over between parts.

Sample 1
Target: Replicase polyprotein 1ab, main protease (rep, Severe acute respiratory syndrome coronavirus 2, UniProt P0DTD1)
Read-out: enzyme activity
Mode: inhibitor
SMILES	IC50 [µM]
Cc1ccc(C(=O)n2nc(-c3cccnc3)nc2N)cc1	5.07
CCCCCCCCCCCCCCCC[n+]1ccn(Cc2ccccc2)c1C	> 20
COc1ccc(C(=O)n2nc(-c3ccccc3)nc2N)cc1OC	8.75

Sample 2
Target: Sal-like protein 4, full length isoform B (SALL4, Homo sapiens, UniProt Q9UJQ4-2, residues 1-616)
Method: universal PBM
Form: double-stranded DNA, one strand shown
Sample: in vitro
Concentration: not given
Setting: 8-mer, flanks averaged, mean of replicates
Reading: higher = stronger binding
Strand	E-score
GCTGCATA	0.0556
CGCGATGC	-0.29
AAAGTTCC	-0.0922
ACATACGA	0.19
CCTTAGCA	-0.111
GCAATGGA	0.0176
AGCCTGAG	-0.26
ACAGTCTA	0.0483

Sample 3
Target: Transcription factor Sp1 (SP1, Homo sapiens, UniProt P08047, residues 1-785, full length assumed)
Chain of UniProt P08047 (whole entry, looked up): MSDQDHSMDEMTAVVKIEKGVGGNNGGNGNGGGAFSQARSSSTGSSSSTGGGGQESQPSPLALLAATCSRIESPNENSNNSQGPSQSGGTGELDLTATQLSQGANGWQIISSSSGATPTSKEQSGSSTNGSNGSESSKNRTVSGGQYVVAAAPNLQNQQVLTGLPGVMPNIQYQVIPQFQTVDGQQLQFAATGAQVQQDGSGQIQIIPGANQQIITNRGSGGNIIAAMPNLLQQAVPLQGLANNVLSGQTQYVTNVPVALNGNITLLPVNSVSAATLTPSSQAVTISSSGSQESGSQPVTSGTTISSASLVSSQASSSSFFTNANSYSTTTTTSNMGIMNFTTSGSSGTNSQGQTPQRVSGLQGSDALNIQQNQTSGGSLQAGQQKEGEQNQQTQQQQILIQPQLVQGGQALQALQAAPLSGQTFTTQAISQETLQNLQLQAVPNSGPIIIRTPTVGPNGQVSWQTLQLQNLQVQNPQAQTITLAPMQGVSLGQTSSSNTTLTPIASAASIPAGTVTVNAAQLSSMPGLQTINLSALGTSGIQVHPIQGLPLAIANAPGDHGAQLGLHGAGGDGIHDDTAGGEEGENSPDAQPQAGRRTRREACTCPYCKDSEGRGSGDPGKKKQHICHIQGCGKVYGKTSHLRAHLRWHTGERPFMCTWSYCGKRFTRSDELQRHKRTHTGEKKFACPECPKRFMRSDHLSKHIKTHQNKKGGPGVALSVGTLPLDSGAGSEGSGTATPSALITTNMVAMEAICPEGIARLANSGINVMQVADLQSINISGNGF
Method: protein-binding microarray
Form: double-stranded DNA, one strand shown
Sample: in vitro
Concentration: not given
Setting: k-mer, scored over probes, only values ≥0.25
Reading: higher = stronger binding
Strand	E-score
CGCCCCAC	0.458
ATACATAT	0.284
GGGCGTAA	0.344

Sample 4
Target: Replicase polyprotein 1ab, polymerase (rep, Severe acute respiratory syndrome coronavirus 2, UniProt P0DTD1)
Read-out: enzyme activity
Mode: inhibitor
Concentration: 20 µM
Structure (SMILES)	inhibition [%]
NC(=O)NC1NC(=O)NC1=O (centres unmarked)	-7.31
CC1=NN(c2ccc(C(=O)O)cc2)C(=O)/C1=C\c1ccc(-c2cc(C)c(C)cc2[N+](=O)[O-])o1	0.99
COc1ccccc1OCC(O)CN1CCN(CC(=O)Nc2c(C)cccc2C)CC1 (centres unmarked)	-7.74
Cc1cccc(NC(=O)CN2CCC(c3ccccn3)CC2)c1	-0.17
CCOCCOc1ccccc1C(N)=O	-5.23
C=CCN1C[C@H](C(=O)N(CCCN(C)C)C(=O)NCC)C[C@@H]2c3cccc4[nH]cc(c34)C[C@H]21	4.73
CC(C)(C)N1CCC(c2ccccc2)(c2ccccc2)CC1	2.26
CN(C)CCC=C1c2ccccc2CCc2ccccc21	-3.52
C/C(O)=C(\C#N)C(=O)Nc1ccc(C(F)(F)F)cc1	0.74
COc1ccc2cc(OCC3(C(=O)O)CN(C(=O)c4ccc(F)cc4)C3)ccc2c1	0.47
CN(C)c1cccc(-c2c3c(=O)n(-c4ccccc4Cl)[nH]c3cc(=O)n2C)c1	-2.12
Cc1ccc(Cl)c(OCC(O)CNC(C)C)c1 (centres unmarked)	1.51
CN(C)CCOC(C)(c1ccccc1)c1ccccn1 (centres unmarked)	13.9
NC(=O)c1ccc2[nH]ccc2c1	1.97
C#CCN(C)Cc1ccccc1	13
C[C@@H]1CN(Cc2ccc(F)cc2)CCN1C(=O)COc1ccc(Cl)cc1NC(N)=O	6.05
OC1(c2ccc(Cl)cc2)c2ccccc2C2=NCCN21 (centres unmarked)	-0.81
c1ccc2c(c1)[I+]c1ccccc1-2	15.6
Cn1cnc(N)c2ncnc1-2	-0.09
O=C(O)CCN(O)C(=O)CCCCCCCCC1CC1	-0.57
Oc1ccccc1	-0.43
CCCCCNCC(N)=O	2.84
CC(=O)c1ccc(S(=O)(=O)NC(=O)NC2CCCCC2)cc1	-7.43
Cc1ccc(-c2c(-c3nn(C)c4ncnc(N5CC[C@H](N6CCCCC6)C5)c34)cnn2C)cc1	14.6
C[C@@H](NCCCc1cccc(C(F)(F)F)c1)c1cccc2ccccc12	-0.69

Sample 5
Cell line: HEK-293T
Organism: VSV pseudotyped with SARS-CoV-2 spike
Concentration: 10 µM
Time: 16 h
SMILES	pseudovirus infection [%]
NCCCC(O)(P(=O)(O)O)P(=O)(O)O	106
CNC[C@H](O)c1ccc(O)c(O)c1	76.3
CN1CCC[C@H]1c1cccnc1	96.5

Sample 6
Target: Histone acetyltransferase KAT6A, winged helix 1, GST fusion (KAT6A, Homo sapiens, UniProt Q92794, residues 1-85)
Method: protein binding microarray
Form: double-stranded DNA, one strand shown
Sample: in vitro
Concentration: not given
Setting: 8-mer, flanks averaged, mean of 2 arrays, mostly near background
Relative to: not given
Reading: higher = stronger binding
Residues (chain): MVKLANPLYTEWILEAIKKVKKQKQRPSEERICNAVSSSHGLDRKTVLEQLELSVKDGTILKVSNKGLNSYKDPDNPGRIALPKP
Strand	E-score
CATTACTA	-0.0672
ACTGGTAT	-0.108
ACATTAGC	0.032
AGTTATAT	-0.14
CCCAACCG	-0.00989
AGACTCCC	0.0453
GATAACTA	-0.0937
CTCCCTAC	-0.0896

Excerpt of the above (sample 4):
Structure (SMILES)	inhibition [%]
CC(=O)c1ccc(S(=O)(=O)NC(=O)NC2CCCCC2)cc1	-7.43
CN(C)CCC=C1c2ccccc2CCc2ccccc21	-3.52
OC1(c2ccc(Cl)cc2)c2ccccc2C2=NCCN21 (centres unmarked)	-0.81
